{"data": "Measured values pooled from the literature", "Uncharacterized protein": "Uncharacterized protein (Trypanosoma cruzi, UniProt Q4DRC3)", "chemosensory protein 5": "chemosensory protein 5 (Mythimna separata, UniProt A0A5H2NAD7)", "CHRM2": "Muscarinic acetylcholine receptor M2 (CHRM2, Homo sapiens, UniProt P08172)", "DRD3": "D(3) dopamine receptor (DRD3, Homo sapiens, UniProt P35462)", "HTR6": "5-hydroxytryptamine receptor 6 (HTR6, Homo sapiens, UniProt P50406)", "cathepsin L": "cathepsin L (Capra hircus, UniProt A0A452FFI6)", "SLC18A3": "Vesicular acetylcholine transporter (SLC18A3, Homo sapiens, UniProt Q16572)", "CASP9": "Caspase-9 (CASP9, Homo sapiens, UniProt P55211)", "KDM1A": "Lysine-specific histone demethylase 1A (KDM1A, Homo sapiens, UniProt O60341)", "note": "Each line is one published result; not all experiments were run side by side. Numbers after ± are the reported error.", "chain of UniProt P08172 (whole entry, looked up)": "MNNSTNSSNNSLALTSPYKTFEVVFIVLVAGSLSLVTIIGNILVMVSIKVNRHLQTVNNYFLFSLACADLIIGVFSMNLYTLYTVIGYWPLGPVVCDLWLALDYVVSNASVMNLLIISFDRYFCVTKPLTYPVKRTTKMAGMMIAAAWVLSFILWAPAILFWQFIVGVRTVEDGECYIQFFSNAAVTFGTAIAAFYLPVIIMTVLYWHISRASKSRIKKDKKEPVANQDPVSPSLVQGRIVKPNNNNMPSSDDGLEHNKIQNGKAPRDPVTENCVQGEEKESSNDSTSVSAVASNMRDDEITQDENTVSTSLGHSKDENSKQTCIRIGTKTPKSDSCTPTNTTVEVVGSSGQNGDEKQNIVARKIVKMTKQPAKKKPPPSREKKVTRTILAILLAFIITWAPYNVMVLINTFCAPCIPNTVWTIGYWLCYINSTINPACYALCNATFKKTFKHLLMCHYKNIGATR", "chain of UniProt P50406 (whole entry, looked up)": "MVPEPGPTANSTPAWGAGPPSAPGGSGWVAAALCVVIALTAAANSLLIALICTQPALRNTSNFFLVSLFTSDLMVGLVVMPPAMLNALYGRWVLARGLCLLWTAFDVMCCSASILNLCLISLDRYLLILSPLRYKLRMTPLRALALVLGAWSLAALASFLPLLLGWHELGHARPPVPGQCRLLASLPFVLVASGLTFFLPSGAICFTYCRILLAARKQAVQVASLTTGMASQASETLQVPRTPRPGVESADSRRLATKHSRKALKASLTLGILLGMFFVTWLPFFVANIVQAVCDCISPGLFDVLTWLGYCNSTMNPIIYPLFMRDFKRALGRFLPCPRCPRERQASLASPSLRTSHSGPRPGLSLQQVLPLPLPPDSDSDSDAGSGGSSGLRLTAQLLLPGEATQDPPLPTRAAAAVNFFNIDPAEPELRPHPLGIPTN", "chain of UniProt P35462 (whole entry, looked up)": "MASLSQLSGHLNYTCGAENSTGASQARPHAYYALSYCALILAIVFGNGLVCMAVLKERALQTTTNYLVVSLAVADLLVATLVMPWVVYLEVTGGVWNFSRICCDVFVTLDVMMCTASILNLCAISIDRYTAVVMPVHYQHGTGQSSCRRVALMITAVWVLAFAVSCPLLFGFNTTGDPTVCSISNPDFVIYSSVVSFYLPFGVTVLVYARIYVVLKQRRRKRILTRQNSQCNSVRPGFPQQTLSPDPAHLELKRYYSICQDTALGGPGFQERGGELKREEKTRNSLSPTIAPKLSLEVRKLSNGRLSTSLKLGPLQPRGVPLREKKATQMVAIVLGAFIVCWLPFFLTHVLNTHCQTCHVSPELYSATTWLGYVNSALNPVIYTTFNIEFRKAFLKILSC", "chain of UniProt Q16572 (whole entry, looked up)": "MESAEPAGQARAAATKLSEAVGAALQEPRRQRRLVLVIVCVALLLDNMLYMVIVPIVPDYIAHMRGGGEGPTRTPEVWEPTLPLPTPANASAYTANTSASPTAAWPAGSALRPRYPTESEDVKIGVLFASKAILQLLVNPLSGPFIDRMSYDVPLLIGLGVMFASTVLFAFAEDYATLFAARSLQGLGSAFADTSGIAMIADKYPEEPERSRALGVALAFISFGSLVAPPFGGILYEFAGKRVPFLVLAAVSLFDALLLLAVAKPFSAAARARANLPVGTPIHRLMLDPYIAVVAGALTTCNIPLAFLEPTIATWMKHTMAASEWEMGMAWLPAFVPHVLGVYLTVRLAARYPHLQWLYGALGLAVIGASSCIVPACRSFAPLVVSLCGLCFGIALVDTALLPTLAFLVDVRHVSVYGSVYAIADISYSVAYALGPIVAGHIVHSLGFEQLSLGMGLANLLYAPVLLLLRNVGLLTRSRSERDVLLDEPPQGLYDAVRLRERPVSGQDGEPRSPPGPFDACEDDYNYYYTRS", "chain of UniProt P55211 (whole entry, looked up)": "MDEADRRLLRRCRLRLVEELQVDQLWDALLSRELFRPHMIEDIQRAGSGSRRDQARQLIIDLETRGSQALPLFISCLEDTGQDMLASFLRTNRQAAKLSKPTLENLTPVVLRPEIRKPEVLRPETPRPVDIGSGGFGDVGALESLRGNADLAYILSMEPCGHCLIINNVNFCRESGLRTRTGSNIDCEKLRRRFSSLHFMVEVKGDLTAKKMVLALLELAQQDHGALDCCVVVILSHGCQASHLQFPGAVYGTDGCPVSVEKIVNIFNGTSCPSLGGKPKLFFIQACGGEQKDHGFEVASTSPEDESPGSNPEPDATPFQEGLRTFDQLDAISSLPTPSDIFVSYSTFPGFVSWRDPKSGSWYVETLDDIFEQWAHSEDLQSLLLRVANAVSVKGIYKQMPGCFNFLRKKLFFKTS", "chain of UniProt P62942 (whole entry, looked up)": "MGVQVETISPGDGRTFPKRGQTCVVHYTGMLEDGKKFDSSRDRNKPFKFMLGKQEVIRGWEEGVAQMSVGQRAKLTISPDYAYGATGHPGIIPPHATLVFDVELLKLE", "chain of UniProt Q16719 (whole entry, looked up)": "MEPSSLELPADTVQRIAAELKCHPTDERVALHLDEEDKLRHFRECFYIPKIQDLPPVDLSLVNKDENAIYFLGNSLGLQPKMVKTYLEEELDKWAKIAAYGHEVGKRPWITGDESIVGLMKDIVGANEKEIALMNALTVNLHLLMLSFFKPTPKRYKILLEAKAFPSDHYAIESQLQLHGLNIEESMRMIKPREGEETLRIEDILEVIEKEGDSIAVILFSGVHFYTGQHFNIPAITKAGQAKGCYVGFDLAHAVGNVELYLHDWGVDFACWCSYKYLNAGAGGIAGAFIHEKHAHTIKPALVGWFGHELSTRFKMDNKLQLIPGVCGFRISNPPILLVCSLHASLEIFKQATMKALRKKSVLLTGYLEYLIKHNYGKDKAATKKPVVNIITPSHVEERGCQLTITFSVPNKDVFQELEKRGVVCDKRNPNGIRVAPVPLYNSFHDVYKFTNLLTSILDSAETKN", "chain of UniProt Q9GZQ6 (whole entry, looked up)": "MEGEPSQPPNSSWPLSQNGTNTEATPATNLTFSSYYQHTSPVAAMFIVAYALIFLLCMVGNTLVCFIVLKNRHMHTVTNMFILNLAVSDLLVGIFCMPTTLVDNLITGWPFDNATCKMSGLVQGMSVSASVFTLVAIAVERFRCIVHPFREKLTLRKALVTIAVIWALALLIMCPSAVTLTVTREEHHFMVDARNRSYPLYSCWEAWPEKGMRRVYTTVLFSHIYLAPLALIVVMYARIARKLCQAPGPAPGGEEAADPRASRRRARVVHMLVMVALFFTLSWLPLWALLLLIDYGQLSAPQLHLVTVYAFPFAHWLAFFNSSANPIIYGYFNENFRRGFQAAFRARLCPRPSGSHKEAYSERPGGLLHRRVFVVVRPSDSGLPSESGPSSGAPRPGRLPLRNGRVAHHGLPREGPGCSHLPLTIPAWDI", "chain of UniProt O00519 (whole entry, looked up)": "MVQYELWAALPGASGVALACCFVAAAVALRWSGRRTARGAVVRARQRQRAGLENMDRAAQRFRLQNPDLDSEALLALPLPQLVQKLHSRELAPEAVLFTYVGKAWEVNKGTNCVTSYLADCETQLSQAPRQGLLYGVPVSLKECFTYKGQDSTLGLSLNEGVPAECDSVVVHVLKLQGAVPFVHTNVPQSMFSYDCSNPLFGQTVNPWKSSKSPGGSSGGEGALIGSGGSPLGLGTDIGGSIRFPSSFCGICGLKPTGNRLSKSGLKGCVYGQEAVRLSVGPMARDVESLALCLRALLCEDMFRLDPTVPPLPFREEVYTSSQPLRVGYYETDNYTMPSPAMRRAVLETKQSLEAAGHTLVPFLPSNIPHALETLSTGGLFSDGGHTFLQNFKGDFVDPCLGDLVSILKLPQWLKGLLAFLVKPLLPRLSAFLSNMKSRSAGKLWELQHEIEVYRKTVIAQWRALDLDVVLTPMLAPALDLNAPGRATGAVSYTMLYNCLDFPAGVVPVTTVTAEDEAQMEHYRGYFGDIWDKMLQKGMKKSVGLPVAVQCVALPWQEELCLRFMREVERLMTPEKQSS", "chain of UniProt Q9Y345 (whole entry, looked up)": "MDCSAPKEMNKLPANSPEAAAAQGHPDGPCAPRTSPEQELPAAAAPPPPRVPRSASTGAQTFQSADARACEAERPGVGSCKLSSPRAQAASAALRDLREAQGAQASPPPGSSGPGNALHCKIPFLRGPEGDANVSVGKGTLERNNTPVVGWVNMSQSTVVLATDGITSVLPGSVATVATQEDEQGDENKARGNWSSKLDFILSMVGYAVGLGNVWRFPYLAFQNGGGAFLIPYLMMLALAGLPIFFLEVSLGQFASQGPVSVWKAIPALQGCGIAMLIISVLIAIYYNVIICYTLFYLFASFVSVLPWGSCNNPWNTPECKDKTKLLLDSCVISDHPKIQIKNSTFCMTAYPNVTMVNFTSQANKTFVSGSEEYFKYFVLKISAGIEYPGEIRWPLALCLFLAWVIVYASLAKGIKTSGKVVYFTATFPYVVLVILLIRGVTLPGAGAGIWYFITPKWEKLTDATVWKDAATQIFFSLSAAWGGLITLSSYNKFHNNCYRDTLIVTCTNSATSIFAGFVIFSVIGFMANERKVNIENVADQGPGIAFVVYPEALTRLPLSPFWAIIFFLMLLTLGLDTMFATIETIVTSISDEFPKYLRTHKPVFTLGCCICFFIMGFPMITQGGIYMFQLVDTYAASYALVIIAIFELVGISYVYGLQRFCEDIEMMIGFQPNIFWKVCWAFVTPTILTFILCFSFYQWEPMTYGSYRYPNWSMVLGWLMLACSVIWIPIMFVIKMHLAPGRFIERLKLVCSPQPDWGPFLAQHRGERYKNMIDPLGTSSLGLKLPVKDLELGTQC", "chain of UniProt P43235 (whole entry, looked up)": "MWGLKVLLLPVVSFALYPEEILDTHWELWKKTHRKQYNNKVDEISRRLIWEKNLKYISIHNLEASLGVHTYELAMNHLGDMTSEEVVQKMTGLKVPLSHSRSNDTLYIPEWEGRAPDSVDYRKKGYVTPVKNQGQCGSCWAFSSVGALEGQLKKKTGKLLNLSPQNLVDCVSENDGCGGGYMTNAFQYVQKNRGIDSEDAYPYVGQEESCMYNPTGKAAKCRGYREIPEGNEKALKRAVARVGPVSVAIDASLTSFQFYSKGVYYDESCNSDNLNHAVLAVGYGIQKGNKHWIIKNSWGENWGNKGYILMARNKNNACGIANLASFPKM"}
{"SMILES": "CN(Cc1c[nH]c2c(=O)[nH]cnc12)[C@H](CO)CCP(=O)(O)O", "target": "Uncharacterized protein", "test": "IMP formation, uncompetitive inhibitor", "conditions": "pH 8.3, 37 °C, added: hypoxanthine 120 µM, PRPP 1 mM", "Ki": "0.7 ± 0.1 µM"}
{"SMILES": "CC1=CC[C@@H]2C[C@H]1C2(C)C", "target": "chemosensory protein 5", "test": "binding, 1-NPN displacement", "conditions": "pH 7.4", "Ki": "5.78 µM"}
{"SMILES": "O=C(OC1CCN(CCOCCOCCN2CCC(OC(=O)C(c3ccccc3)c3ccccc3)CC2)CC1)C(c1ccccc1)c1ccccc1", "target": "CHRM2", "test": "ligand displacement, radioligand", "Ki": "0.891 µM"}
{"SMILES": "CCCCN(CCc1ccccc1)CCc1cccc(O)c1", "target": "OPRD1 (Homo sapiens, UniProt P41143)", "test": "ligand displacement, radioligand", "conditions": "cell membranes", "Ki": "2.8 µM"}
{"SMILES": "CCCCCCCC[C@H]1N[C@H](CO)[C@@H](O)[C@H](O)[C@H]1O", "target": "beta-glucosidase (almond)", "test": "competitive inhibitor", "conditions": "added: p-nitrophenyl glucopyranoside", "Ki": "28 ± 2 µM"}
{"SMILES": "CN1CCC=C(c2nsnc2OCCCN2CCN(CCCCC3CCN(CC(=O)N4c5ccccc5NC(=O)c5ccccc54)CC3)CC2)C1", "target": "CHRM2", "test": "ligand displacement, radioligand", "Ki": "7.24e-05 µM"}
{"SMILES": "NC(CC(=O)c1cccc(O)c1)C(=O)O (centres unmarked)", "target": "Kynureninase (Homo sapiens, UniProt Q16719)", "test": "enzyme activity, inhibitor", "Ki": "0.005 µM"}
{"SMILES": "CCn1c2ccccc2c2cc(CNCCCn3ccnn3)ccc21", "target": "DRD3", "test": "cell-free assay", "Ki": "0.0967 µM"}
{"SMILES": "COc1cc(CN2CCCC2)ccc1OCCN1CCN(c2cccc3sccc23)CC1", "target": "HTR6", "test": "ligand displacement, radioligand", "Ki": "0.764 µM"}
{"SMILES": "O=c1[nH]cnc2c(CNC(CO)COP(=O)(O)O)c[nH]c12 (racemic)", "target": "Uncharacterized protein", "test": "IMP formation, uncompetitive inhibitor", "conditions": "pH 8.3, 37 °C, added: hypoxanthine 120 µM, PRPP 1 mM", "Ki": "35 ± 3 µM"}
{"SMILES": "CC(C)c1noc(-c2ccc(-n3cnc(C(=O)NCc4cccs4)c3)nc2)n1", "target": "Alpha-synuclein, fibril (SNCA, Homo sapiens, UniProt P37840)", "test": "ligand displacement, radioligand", "Ki": "0.0121 µM"}
{"SMILES": "CC[C@H](C)[C@@H]1NC(=O)[C@H](Cc2ccccc2)NC(=O)[C@H](CCC(=O)O)NC(=O)[C@H](CCCNC(=N)N)NC(=O)CNC(=O)[C@@H](NC(=O)[C@H](CC(C)C)NC(=O)[C@H](CCCNC(=N)N)NC(=O)[C@@H](NC(=O)CNC(=O)[C@H](Cc2ccc(O)cc2)NC(=O)[C@@H]2CCCN2C(=O)[C@H](C)NC(=O)[C@H](C)NC(=O)[C@@H](N)CCCNC(=N)N)C(C)C)CSSC[C@@H]2NC(=O)[C@@H](NC(=O)[C@H](CO)NC(=O)[C@H](CO)NC(=O)[C@H](CO)NC(=O)[C@H](CC(C)C)NC(=O)CNC(=O)[C@H](C)NC(=O)[C@H](CC(C)C)NC(=O)[C@@H](NC(=O)[C@@H](N)CC(=O)O)C(C)C)CSSC[C@H](NC(=O)CNC(=O)[C@H](Cc3c[nH]c4ccccc34)NC(=O)[C@H](CCCCN)NC2=O)C(=O)N[C@@H](CO)C(=O)N[C@@H](CCCCN)C(=O)N[C@@H](CO)C(=O)N[C@@H](CCC(=O)O)C(=O)N[C@@H]([C@@H](C)CC)C(=O)N[C@@H](CO)C(=O)N[C@@H](CO)C(=O)N[C@@H](CC(C)C)C(=O)N[C@H](C(=O)O)CSSC[C@@H](C(=O)NCC(=O)NCC(=O)N[C@@H](CO)C(=O)N[C@@H](CCCNC(=N)N)C(=O)N[C@@H](Cc2c[nH]c3ccccc23)C(=O)O)NC(=O)[C@H]([C@@H](C)O)NC(=O)[C@H](Cc2ccccc2)NC(=O)[C@H]([C@@H](C)CC)NC(=O)[C@H](C(C)C)NC(=O)[C@H](C)NC(=O)[C@H](CCCNC(=N)N)NC1=O", "target": "RXFP3 (Homo sapiens, UniProt Q9NSD7)", "test": "ligand displacement", "Ki": "0.0417 µM"}
{"SMILES": "OC[C@H](OCc1ccccc1C(F)(F)F)[C@H](O)C[S@@+]1C[C@@H](O)[C@H](O)[C@H]1CO", "target": "GAA (Homo sapiens, UniProt P10253)", "test": "enzyme activity, inhibitor, absorbance", "conditions": "pH 5.2", "Ki": "0.017 µM"}
{"SMILES": "CC1=CC[C@@H]2[C@H](C1)C2(C)C", "target": "chemosensory protein 5", "test": "binding, 1-NPN displacement", "conditions": "pH 5.0", "Ki": "4.67 µM"}
{"SMILES": "CCCCCCCC[C@@H]1[C@H](O)[C@@H](O)[C@H](O)[C@@H](CO)N1C(=S)NCCCC", "target": "beta-glucosidase (almond)", "test": "competitive inhibitor", "conditions": "added: p-nitrophenyl glucopyranoside", "Ki": "> 2000 µM"}
{"SMILES": "COc1ccccc1/C=C/C(=N/NC(N)=O)c1ccccc1", "target": "cathepsin L", "test": "enzyme activity, competitive inhibitor", "system": "goat liver enzyme", "conditions": "pH 6.0, added: Z-Phe-Arg-4-methoxy-β-naphthylamide", "Ki": "0.00156 ± 2e-05 µM"}
{"SMILES": "O=C1Nc2ccccc2N(C(=O)CN2CCC(CCCCN3CCN(CCCCOC(=O)C4c5ccccc5Oc5ccccc54)CC3)CC2)c2ccccc21", "target": "CHRM2", "test": "ligand displacement, radioligand", "Ki": "0.00427 µM"}
{"SMILES": "c1cc(N2CCN(CCCOc3ccc(CN4CCCCC4)cc3)CC2)c2ccsc2c1", "target": "HTR6", "test": "ligand displacement, radioligand", "Ki": "0.438 µM"}
{"SMILES": "O=C(c1ccc(F)cc1)C1CCN(C2Cc3c(O)cccc3CC2O)CC1 (racemic)", "target": "SLC18A3", "test": "ligand displacement, radioligand", "Ki": "0.00464 µM"}
{"SMILES": "CC(C)C[C@@H]1NC(=O)[C@H](C)NC(=O)[C@H](CC2CCN(C(=N)N)CC2)NC(=O)[C@H](CO)NC(=O)[C@H](CCCNC(=N)N)NC(=O)[C@H](CCCCN)NC(=O)[C@@H]2CCCN2C(=O)[C@@H](N)CSSC[C@@H](C(=O)O)NC(=O)[C@H](Cc2ccccc2)NC1=O", "target": "Urokinase-type plasminogen activator (Mus musculus, UniProt P06869)", "conditions": "pH 7.4, 37 °C, added: S-2444 substrate", "Ki": "> 1000 µM"}
{"SMILES": "CN(C)C1(CNC(=O)c2cnn(-c3ccc(Cl)cc3)c2)CCSC1 (centres unmarked)", "target": "DRD3", "test": "ligand displacement, radioligand", "conditions": "cell membranes", "Ki": "> 10 µM"}
{"SMILES": "CC(C)(F)CC(NC(c1ccc(-c2ccc(S(C)(=O)=O)cc2)cc1)C(F)(F)F)C(=O)NCC#CBr (centres unmarked)", "target": "Cathepsin K (CTSK, Homo sapiens, UniProt P43235)", "test": "enzyme activity, inhibitor, fluorescence", "Ki": "0.19 µM"}
{"SMILES": "Nc1ncnc2c(CN3C[C@H](CSc4cnccn4)[C@@H](O)C3)c[nH]c12", "target": "MTA/SAH nucleosidase (Campylobacter jejuni subsp. jejuni, UniProt Z9IB28FKP7)", "test": "slow-onset tight-binding inhibitor", "conditions": "pH 7.4, 25 °C, added: MTA 1 mM", "Ki": "0.0014 ± 0.0002 µM"}
{"SMILES": "Cc1cc(OCCCN2CCN(c3cccc4sccc34)CC2)ccc1CN1CCCC1", "target": "HTR6", "test": "ligand displacement, radioligand", "Ki": "0.482 µM"}
{"SMILES": "CC(=O)N[C@@H](Cc1ccccc1)C(=O)N[C@@H](CC(=O)O)C(=O)N[C@H](C(=O)N1CCC[C@H]1C(=O)N[C@H](C=O)CC(=O)O)C(C)C", "target": "CASP9", "test": "enzyme activity, inhibitor, fluorescence", "conditions": "pH 7", "Ki": "1.05 µM"}
{"SMILES": "NC(=O)N/N=C(/C=C/c1cccc(Cl)c1)c1ccccc1", "target": "cathepsin L", "test": "enzyme activity, competitive inhibitor", "system": "goat liver enzyme", "conditions": "pH 6.0, added: Z-Phe-Arg-4-methoxy-β-naphthylamide", "Ki": "0.00242 ± 1e-05 µM"}
{"SMILES": "O=C(c1ccc(=O)n(CCF)c1)C1CCN(C2Cc3ccccc3CC2O)CC1 (single isomer, unassigned; (-))", "target": "SLC18A3", "test": "ligand displacement, radioligand", "Ki": "0.00037 µM"}
{"SMILES": "CCS[C@H]1CC[C@@H](N(C)CC(=O)Nc2ccc(C)c(C)c2)C1", "target": "DRD3", "test": "ligand displacement, radioligand", "conditions": "cell membranes", "Ki": "> 10 µM"}
{"SMILES": "O=C(COc1ccc2ccccc2c1)NCc1ccc(OP(=O)(O)O)cc1", "target": "Signal transducer and activator of transcription 5B, SH2 (STAT5B, Homo sapiens, UniProt P51692)", "test": "ligand displacement, FP", "Ki": "50 µM"}
{"SMILES": "CCC(=O)NCc1cc(C(=O)NCCN2CCN(CCCCC3CCN(CC(=O)N4c5ccccc5NC(=O)c5ccccc54)CC3)CC2)cc(C(=O)NCCN2CCN(CCOC(=O)C3c4ccccc4Oc4ccccc43)CC2)c1", "target": "CHRM2", "test": "ligand displacement, radioligand", "Ki": "0.0011 µM"}
{"SMILES": "CCC[C@@H]1[C@H](O)[C@@H](O)[C@H](O)[C@@H](CO)N1C(=S)NCc1ccc(C(F)(F)F)cc1", "target": "beta-glucosidase (almond)", "test": "competitive inhibitor", "conditions": "added: p-nitrophenyl glucopyranoside", "Ki": "> 2000 µM"}
{"SMILES": "C[C@@H]1NC(=O)[C@H](C)NC(=O)[C@H](CCC(N)=O)NC(=O)C[C@@H](CCc2ccccc2)NC(=O)[C@@H]2CCCCN2C(=O)C(=O)C(C)(C)COC(=O)[C@@H](C)NC(=O)[C@H](CC(=O)O)NC1=O", "target": "FKBP1A (Homo sapiens, UniProt P62942)", "test": "ligand displacement, FP", "Ki": "0.22 µM"}
{"SMILES": "NC(=O)N/N=C(/C=C/c1ccccc1)c1ccccc1", "target": "cathepsin L", "test": "enzyme activity, competitive inhibitor", "system": "goat liver enzyme", "conditions": "pH 6.0, added: Z-Phe-Arg-4-methoxy-β-naphthylamide", "Ki": "0.00227 ± 4e-05 µM"}
{"SMILES": "CN1CCC=C(c2nsnc2OCCCCCNC(=O)CCCCCCC(=O)NCCCCCOc2nsnc2C2=CCCN(C)C2)C1", "target": "CHRM2", "test": "ligand displacement, radioligand", "Ki": "0.00347 µM"}
{"SMILES": "O=C(NC1CCN(Cc2ccccc2)CC1)c1ccc(OCc2ccccc2)cc1", "target": "Sodium- and chloride-dependent glycine transporter 2 (Homo sapiens, UniProt Q9Y345)", "test": "cell-free assay, mass spectrometry", "Ki": "0.214 µM"}
{"SMILES": "CCC(=O)NCc1cc(C(=O)NCCCC(=O)NCCCCCOc2nsnc2C2=CCCN(C)C2)cc(C(=O)NCCN2CCN(CCCCC3CCN(CC(=O)N4c5ccccc5NC(=O)c5ccccc54)CC3)CC2)c1", "target": "CHRM2", "test": "ligand displacement, radioligand", "Ki": "0.000339 µM"}
{"SMILES": "CCC[C@@H]1[C@H](O)[C@@H](O)[C@H](O)[C@@H](CO)N1C(=S)NCc1ccc(OC)cc1", "target": "beta-glucosidase (almond)", "test": "competitive inhibitor", "conditions": "added: p-nitrophenyl glucopyranoside", "Ki": "> 2000 µM"}
{"SMILES": "CC(=O)N[C@@H](CC(=O)O)C(=O)N[C@H](C(=O)N1CCC[C@H]1C(=O)N[C@H](C=O)CC(=O)O)C(C)C", "target": "CASP9", "test": "enzyme activity, inhibitor, fluorescence", "conditions": "pH 7", "Ki": "0.479 µM"}
{"SMILES": "O=C(Nc1ccc(C(F)(F)F)nc1)N1CCC(Cc2cccc(Oc3ccc(C(F)(F)F)cn3)c2)CC1", "target": "FAAH (Homo sapiens, UniProt O00519)", "test": "enzyme activity, inhibitor", "Ki": "0.014 µM"}
{"SMILES": "NCCCCNCCCNCCCNCCCN", "target": "KDM1A", "test": "enzyme activity, inhibitor, absorbance", "Ki": "13 µM"}
{"SMILES": "Cc1cccc(NC(=O)CN2CCC(c3ccccc3)CC2)c1", "target": "DRD3", "Ki": "0.806 ± 0.145 µM"}
{"SMILES": "N=C(N)NCC(=O)NCC1(Nc2ccccc2)CCCN(Cc2ccccc2)C1 (centres unmarked)", "target": "NPFFR1 (Homo sapiens, UniProt Q9GZQ6)", "test": "cell-free assay", "Ki": "0.904 µM"}
{"SMILES": "COc1ccc(CCCN[C@H]2CCC[C@@H]2CN[C@@H]2CCC[C@H]2CNCCCCN[C@H]2CCC[C@@H]2CN)cc1", "target": "KDM1A", "test": "enzyme activity, inhibitor", "Ki": "3.3 µM"}
{"SMILES": "CC(C)C(=O)N[C@@H](C)C(=O)N[C@@H](CCCNC(=N)N)C(=O)N[C@@H](C)C(N)=O", "target": "WDR5 (Homo sapiens, UniProt P61964)", "test": "ligand displacement, FP", "Ki": "0.04 µM"}
